# Published values gathered from unrelated publications.
# Lines come from different studies, so protocols differ. Several values in a cell are separate wells, animals, samples, runs or records. ± gives the spread as reported.
# UniProt Q9UM73, sequence (whole entry, unmodified, looked up): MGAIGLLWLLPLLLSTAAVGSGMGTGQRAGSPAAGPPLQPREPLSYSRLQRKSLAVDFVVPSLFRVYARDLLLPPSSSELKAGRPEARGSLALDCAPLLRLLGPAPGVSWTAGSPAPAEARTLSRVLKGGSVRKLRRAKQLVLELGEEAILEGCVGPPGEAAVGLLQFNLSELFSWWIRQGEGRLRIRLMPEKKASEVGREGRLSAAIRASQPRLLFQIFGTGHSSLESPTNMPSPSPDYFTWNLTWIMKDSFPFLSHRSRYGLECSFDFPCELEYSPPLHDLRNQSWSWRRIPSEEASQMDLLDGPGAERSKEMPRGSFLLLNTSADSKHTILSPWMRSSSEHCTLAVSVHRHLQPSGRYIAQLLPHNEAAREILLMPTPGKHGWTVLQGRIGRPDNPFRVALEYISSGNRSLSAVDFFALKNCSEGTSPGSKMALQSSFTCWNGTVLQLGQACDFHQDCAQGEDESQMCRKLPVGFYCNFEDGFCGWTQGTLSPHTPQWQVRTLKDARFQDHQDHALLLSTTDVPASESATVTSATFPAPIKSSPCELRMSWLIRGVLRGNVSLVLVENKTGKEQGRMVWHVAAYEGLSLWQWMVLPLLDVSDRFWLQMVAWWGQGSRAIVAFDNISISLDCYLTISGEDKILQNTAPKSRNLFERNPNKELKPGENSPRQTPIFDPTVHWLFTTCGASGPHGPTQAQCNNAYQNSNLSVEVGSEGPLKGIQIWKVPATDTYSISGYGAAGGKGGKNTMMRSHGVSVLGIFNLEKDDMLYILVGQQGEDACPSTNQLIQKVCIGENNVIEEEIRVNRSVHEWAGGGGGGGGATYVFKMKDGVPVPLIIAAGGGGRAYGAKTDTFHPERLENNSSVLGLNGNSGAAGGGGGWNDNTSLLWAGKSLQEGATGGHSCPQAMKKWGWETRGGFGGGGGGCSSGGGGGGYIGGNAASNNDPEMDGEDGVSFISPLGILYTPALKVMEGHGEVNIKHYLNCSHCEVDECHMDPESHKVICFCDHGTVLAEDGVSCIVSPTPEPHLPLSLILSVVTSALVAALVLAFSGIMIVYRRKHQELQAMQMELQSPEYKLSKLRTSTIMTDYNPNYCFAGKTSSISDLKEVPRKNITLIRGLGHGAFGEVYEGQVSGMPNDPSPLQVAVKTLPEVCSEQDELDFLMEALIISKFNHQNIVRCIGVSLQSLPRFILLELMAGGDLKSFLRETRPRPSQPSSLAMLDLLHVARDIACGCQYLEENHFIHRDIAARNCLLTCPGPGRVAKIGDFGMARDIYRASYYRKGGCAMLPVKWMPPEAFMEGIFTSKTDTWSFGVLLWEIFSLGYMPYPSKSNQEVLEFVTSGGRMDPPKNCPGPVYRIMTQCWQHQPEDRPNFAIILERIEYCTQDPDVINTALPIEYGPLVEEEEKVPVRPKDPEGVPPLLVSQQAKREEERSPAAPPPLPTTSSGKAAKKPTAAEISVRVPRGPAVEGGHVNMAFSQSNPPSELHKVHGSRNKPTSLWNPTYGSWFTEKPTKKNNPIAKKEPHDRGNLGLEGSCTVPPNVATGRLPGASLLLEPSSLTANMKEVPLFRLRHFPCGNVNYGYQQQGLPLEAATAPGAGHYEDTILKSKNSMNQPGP
SMILES,tested on,test,system,conditions,scale,endpoint,result
Nc1ncc(-c2cc(-c3cnn(CC(F)(F)F)c3)ncc2F)nc1C(=O)NC1CNCC(F)C1 (stereo not shown),DRAK2,KINOMEscan,,1 µM,relative to: DMSO control,remaining binding,34%
N#C[C@@H]1CC(F)(F)CN1C(=O)CNC(=O)c1ccnc2ccc(OCCCN3CCN(C(=O)CCc4ccc(O)c(CN5CCN6CC(=O)[O][Al-]([18F])([O]C(=O)C5)[O]c5ccc(CCC(=O)N7CCN(CCCOc8ccc9nccc(C(=O)NCC(=O)N%10CC(F)(F)C[C@H]%10C#N)c9c8)CC7)cc5C6)c4)CC3)cc12 (stereo partly shown),HT1080 cells expressing human FAP,,,"120 min, 37 °C",,internalized fraction,81.3 ± 2.6%
O=C(c1ccc(C2CCCCC2)cc1)N1CCC(F)CC1,,hepatocyte stability,cryopreserved human hepatocytes,1 µM,,hepatic clearance,17 mL/min/kg
CCCS(=O)(=O)NC12CCCC(C)(CCC3C1CC3(C)C)C2 (stereo not shown),HT-29,"cell growth or viability, CCK-8",,50 µM,,inhibition,48.6%
O=C(COCC(F)F)Nc1ccc([C@H]2[C@@H](F)[C@@H](F)C[C@@H](F)[C@H]2F)cc1,,liver microsome stability,cynomolgus liver microsomes,1 µM,,hepatic clearance,20 mL/min/kg
COc1cccc(CNC[C@@](O)(COCc2ccccc2)[C@@H]2CC[C@@H](C)C[C@H]2OCc2ccccc2)c1,A2780,"cell growth or viability, MTT",,"30 µM, 72 h",,inhibition,95.1%
CN1CCN(C(=O)c2cn(C34CCCC(C)(CCC5C3CC5(C)C)C4)nn2)CC1 (stereo not shown),HT-29,"cell growth or viability, CCK-8",,10 µM,,inhibition,< 50%
CCc1c(-c2ccc3[nH]ncc3c2)cnc(N)c1-c1ccc(O)cc1,"CHP-212 resistant sublines, USP7 V517F heterozygous",,,0.7812 µM,,viability,114%
CNS(=O)(=O)Nc1nccc(Cc2c(C)c3ccc(Oc4ncccc4F)cc3oc2=O)c1F,HCC15,cell viability,,7 days,,IC50,> 1000 nM
C=C1CC[C@H](OCCCNC(=O)CCOCCOCCOCCOCCOCCOCCOCCOCCOCCOCCOCCOCCOCCOCCOCCOCCOCCOCCOCCOCCOCCOCCOCCOCCOCCOCCOCCOCCOCCOCCOCCOCCOCCOCCOCCOCCNC(=O)CCN2C(=O)CC(SC[C@H](NC(=O)[C@H](Cc3ccccc3)NC(=O)[C@H](CC(N)=O)NC(=O)[C@H](Cc3c[nH]cn3)NC(=O)[C@@H](NC(=O)[C@H](CC(=O)O)NC(=O)[C@H](CCC(N)=O)NC(=O)[C@H](CC(C)C)NC(=O)[C@H](CCCCN)NC(=O)[C@H](CCCCN)NC(=O)[C@H](CCCNC(=N)N)NC(=O)[C@H](CC(C)C)NC(=O)[C@H](Cc3c[nH]c4ccccc34)NC(=O)[C@H](CCC(=O)O)NC(=O)[C@@H](NC(=O)[C@H](CCCNC(=N)N)NC(=O)[C@H](CCC(=O)O)NC(=O)[C@H](CCSC)NC(=O)[C@H](CO)NC(=O)[C@H](CC(N)=O)NC(=O)[C@H](CC(C)C)NC(=O)[C@H](Cc3c[nH]cn3)NC(=O)[C@H](CCCCN)NC(=O)CNC(=O)[C@H](CC(C)C)NC(=O)[C@H](CC(N)=O)NC(=O)[C@H](Cc3c[nH]cn3)NC(=O)[C@H](CCSC)NC(=O)[C@H](CC(C)C)NC(=O)[C@H](CCC(N)=O)NC(=O)[C@@H](NC(=O)[C@H](CCC(=O)O)NC(=O)[C@H](CO)NC(=O)[C@@H](NC(=O)[C@@H](N)CO)C(C)C)[C@@H](C)CC)C(C)C)C(C)C)C(=O)O)C2=O)C/C1=C/C=C1\CCC[C@]2(C)[C@@H]([C@H](C)CCCC(C)(C)O)CC[C@@H]12 (stereo partly shown),,,"male Sprague-Dawley rat, plasma","intravenous, 100 µg/kg, single dose",,half-life,8.43 h
CCC(=CCc1c(O)cc2c(c1O)C(=O)CC(c1cccc(O)c1OC)O2)CC (stereo not shown),HeLa,"cell growth or viability, MTT",,"50 µM, 48 h",,inhibition,76%
O=S(=O)(Nc1ccc(OC(F)(F)F)cc1)N1CCCC(C2c3ccccc3CCc3ccccc32)C1 (stereo not shown),D425,CellTiter,,"concentration not given, 72 h",,cell proliferation,decreased
CCN(CC)CC(=O)Nc1cccc(-n2cc(-c3ccc4ccc(-c5cn(-c6cccc(NC(=O)CN(CC)CC)c6)nn5)cc4c3)nn2)c1,RCC4,"PCR angiogenesis array, refers to: PROK2",,"5 x IC50, 6 h, normoxia",relative to: untreated,fold regulation,1.06
CCn1nc(Cl)c2c1-c1cnc(N)c(c1)O[C@H](C)c1cc(F)ccc1-c1nn(C)cc1C2,"ALK (Homo sapiens, UniProt Q9UM73, R1275Q)","enzyme activity, inhibitor",,together with: 1 mM ATP,,IC50,0.8 nM
C=CC(=O)N1[C@H](c2ccc3c(c2)OCO3)c2[nH]c3ccccc3c2C[C@H]1C(=O)N1CCOCC1,22Rv1,ATAC-seq,,"concentration not given, FOXA1-binding sites, log2FC 1",,increased accessible sites,542 sites
CCC(=CCc1c(O)cc2c(c1O)C(=O)CC(c1cccc(O)c1)O2)CC (stereo not shown),HeLa,"cell growth or viability, MTT",,"50 µM, 48 h",,inhibition,83%
CC(=O)N[C@@H](CC(=O)O)C(=O)N[C@@H](CCC(=O)O)C(=O)N[C@H](C(=O)N[C@@H](CC(=O)O)C(=O)COC(=O)c1c(C)cccc1C)C(C)C,THP-1 cells expressing FKBP-caspase-4,"pyroptosis, inhibitor",,"concentration not given, together with: B/B dimerizer",,LDH release,24.1% and 19.7% and 15.3%
COC1CN([C@H]2CC[C@H]([C@@]3(C)Oc4c(Cl)cc(C(=O)NCc5c(SC)cc(C)[nH]c5=O)c(C)c4O3)CC2)C1,,"RNA-seq, refers to: CYSTM1","human, whole blood","dose not given, 24 h",relative to: pretreatment baseline,log2 fold change,2.99
Cc1ncsc1-c1ccc(C(C)NC(=O)C2CC(O)CN2C(=O)C(NC(=O)CCCCCCCCCCN2CCCC(Nc3ncc(Cl)c(Nc4ccccc4S(=O)(=O)C(C)C)n3)C2)C(C)(C)C)cc1 (stereo not shown),22Rv1,"RNA-seq, refers to: RIN2 mRNA",,concentration not given,relative to: DMSO,log2 fold change,-2.82
CC(C)c1ccc(N(C)c2ccc3c(c2)OCC[C@H]3CNc2cnccc2C(=O)O)cc1,PF-382,"cell viability, CellTiter-Glo",,7 days,,IC50,3.69 nM
O=S(=O)(N[C@H]1CCO[C@@H](C2c3ccccc3CCc3ccccc32)C1)c1ccc(OC(F)(F)F)cc1,D341,"immunoblot, refers to: CIP2A",,concentration not given,,protein level,decreased
COc1ccccc1-c1ccncc1C(=O)Nc1nnc(OCc2ccc(Cl)cc2)s1,DLD-1 parental,,,"0.06 µM, single replicate",,colony count,80 and 79 and 60 and 73 and 83
O=C(Nc1ccc(Cl)c(C(F)(F)F)c1)C1(C(=O)Nc2ccc3c(/C=C/c4ccccn4)n[nH]c3c2)CC1,BaF3,"cell growth or viability, CCK-8",,,,GI50,> 10000 nM
CC(=O)N[C@@H](CC(=O)O)C(=O)N[C@@H](CCCC(=O)O)C(=O)N[C@@H](CC(C)C)C(=O)N[C@@H](CC(=O)O)C(=O)COC(=O)c1c(C)cccc1C,"THP-1 cells, LPS-primed","pyroptosis, LDH release",,"25 µM, LPS 1 µg/mL, 4 h, together with: nigericin 5 µM, 2 h",,cell lysis,43.1% and 32%
CN1CCCNC(=O)c2cccc(c2)C(=O)NCCCN(C)CCCNc2cccc3c2C(=O)c2cccc(c2C3=O)NCCC1,SAS,"RNA-Seq, refers to: KCNB1 mRNA",,"1 µM, 6 h",relative to: untreated cells,log2 fold change,4.01

# A few entries again:
SMILES,tested on,test,system,conditions,scale,endpoint,result
CCn1nc(Cl)c2c1-c1cnc(N)c(c1)O[C@H](C)c1cc(F)ccc1-c1nn(C)cc1C2,"ALK (Homo sapiens, UniProt Q9UM73, R1275Q)","enzyme activity, inhibitor",,together with: 1 mM ATP,,IC50,0.8 nM
C=CC(=O)N1[C@H](c2ccc3c(c2)OCO3)c2[nH]c3ccccc3c2C[C@H]1C(=O)N1CCOCC1,22Rv1,ATAC-seq,,"concentration not given, FOXA1-binding sites, log2FC 1",,increased accessible sites,542 sites
CCC(=CCc1c(O)cc2c(c1O)C(=O)CC(c1cccc(O)c1)O2)CC (stereo not shown),HeLa,"cell growth or viability, MTT",,"50 µM, 48 h",,inhibition,83%
